Assay results gathered from unrelated publications.
“And” joins repeats or separate records; there may be more than shown. Numbers after ± are the reported error. Values after ≈ are worked out from the molar mass of the structure shown.

CN(C)c1nc(NCc2ccccc2F)c(/N=N/c2ccc(Cl)cc2)c(N(C)C)n1 — mortality (Ostrinia furnacalis; leaf dipping; 500 mg/L, 96 h): 100%
O=C1NC(=O)c2c1c1cc(F)c[n+]3c1c1c2c2cc(O)ccc2[n]1[Ru-4]312([N]=C=S)[S+]3CC[S+]1CC[S+]2CC3 (stereo not shown) — remaining activity (HCK (Homo sapiens, UniProt P08631); enzyme activity; 100 nM, human enzyme, together with: 10 µM ATP; relative to: untreated): 15%
CC[C@H](C)[C@H](NC(=O)[C@H](CCCCN)NC(=O)[C@H](CCCCN)NC(=O)[C@H](Cc1ccccc1)NC(=O)[C@H](Cc1ccccc1)NC(=O)[C@H](CCCCN)NC(=O)[C@H](CCCCN)NC(=O)[C@H](Cc1ccccc1)NC(=O)[C@H](CCCNC(=N)N)NC(=O)[C@@H](N)CCCCN)C(=O)N[C@@H](CCCCN)C(=O)N[C@@H](CCCCN)C(=O)N[C@@H](CO)C(=O)N[C@H](C(=O)N[C@@H](CCCCN)C(=O)N[C@@H](CCCCN)C(=O)N[C@@H](CCCNC(=N)N)C(=O)N[C@H](C(=O)N[C@@H](CCCCN)C(=O)N[C@@H](CCCCN)C(=O)N[C@@H](CC(C)C)C(=O)N[C@@H](Cc1ccccc1)C(=O)N[C@@H](CCCCN)C(=O)N[C@@H](CCCCN)C(=O)N1CCC[C@H]1C(=O)N[C@@H](CCCNC(=N)N)C(=O)N[C@H](C(=O)N[C@H](C(=O)N1CCC[C@H]1C(=O)N[C@H](C(=O)N[C@@H](CO)C(=O)N[C@H](C(=O)N1CCC[C@H]1C(=O)N[C@@H](Cc1ccccc1)C(=O)O)[C@@H](C)CC)[C@@H](C)CC)[C@@H](C)CC)C(C)C)C(C)C)C(C)C — MBC (Pseudomonas aeruginosa; P4 clinical isolate; 20 h): 16 µg/mL
COc1ccccc1-c1n[nH]c2nc(N[C@H]3CC[C@H](NS(=O)(=O)CC(C)C)CC3)ncc12 — EC50 (Leishmania donovani; cell growth; promastigotes, LdBOB CRK6 single knockout): 0.55 ± 0.001 nM
CCOC(=O)C1(CC=C(C)C)Oc2cc(F)ccc2N(CC=C(C)C)C1=O (stereo not shown) — inhibition (Setaria viridis; fresh weight, greenhouse postemergence; postemergence, 150 g ai/ha, 21 days): 34 ± 0.68%
Cc1cc(Cl)cc(S(C)(=O)=NC#N)c1NC(=O)c1cc(Br)nn1-c1ncccc1Cl (stereo not shown) — mortality (Spodoptera litura; leaf-dip; third instar larvae; 50 ppm, 24 h): 0%
CC(C)C[C@H]1NC(=O)[C@@H](C)NC(=O)[C@H](CO)NC(=O)[C@@H](Cc2c(-c3ccc(-c4ccc5ccccc5c4)cc3)[nH]c3ccccc23)NC(=O)[C@@H](CO)NC(=O)[C@@H](C(C)C)NC(=O)[C@H](Cc2ccccc2)NC1=O — MIC90 (Mycobacterium marinum): > 100 µM
CC[C@H](C)[C@@H]1NC(=O)[C@H](CO)NC(=O)[C@H](CCCCN)NC(=O)[C@@H]2CSSC[C@@H](C(=O)N[C@@H](Cc3ccc(O)cc3)C(N)=O)NC(=O)[C@H](CCCCN)NC(=O)[C@@H]3CSSC[C@H](NC(=O)[C@H](CCCNC(=N)N)NC(=O)[C@H](CC(C)C)NC(=O)[C@H](CC(=O)O)NC(=O)[C@H](CC(=O)O)NC(=O)[C@H](CCC(=O)O)NC(=O)[C@H](CC(N)=O)NC(=O)[C@H](Cc4c[nH]c5ccccc45)NC(=O)C(C)(CC)NC(=O)CNC(=O)[C@H](CC(N)=O)NC(=O)[C@@H](NC(=O)CNC(=O)[C@H](Cc4ccccc4)NC(=O)CN)CSSC[C@H](NC(=O)[C@H](Cc4ccc(O)cc4)NC(=O)CNC(=O)CNC(=O)[C@H](CCCCN)NC(=O)[C@H](Cc4ccc(O)cc4)NC(=O)[C@H]4CCCN4C(=O)[C@@H]4CCCN4C1=O)C(=O)N[C@@H](C)C(=O)N[C@@H](CCCCN)C(=O)N1CCC[C@@H]1C(=O)NCC(=O)N[C@@H](Cc1ccccc1)C(=O)N[C@@H](C(C)C)C(=O)N3)C(=O)N[C@@H](Cc1c[nH]cn1)C(=O)N[C@@H](CC(N)=O)C(=O)N[C@@H](Cc1c[nH]cn1)C(=O)N2 (stereo partly shown) — MBC (Streptococcus pneumoniae; BS-444; 24 h, 37 °C, 99.9% killing): 2 µM
CCCCCCCCCC(=O)OCCSCCC(=O)N[C@H](CCN)C(=O)N[C@@H](CCN)C(=O)N[C@@H](CCN)C(=O)N[C@@H](CC(C)C)C(=O)N[C@H](Cc1ccccc1)C(=O)N[C@@H](CCN)C(=O)N[C@@H](CCN)C(=O)N[C@@H](CC(C)C)C(N)=O — MBC (Acinetobacter calcoaceticus; BHI agar spot plating; 24 h, 37 °C): 32 µM
N=C(N)NCCC[C@H](NC(=O)[C@H](CCCNC(=N)N)NC(=O)[C@H](CCCNC(=N)N)NC(=O)[C@H](CCC(N)=O)NC(=O)[C@H](CCCNC(=N)N)NC(=O)[C@H](CCCNC(=N)N)NC(=O)[C@H](CCCCN)NC(=O)[C@H](CCCCN)NC(=O)[C@H](CCCNC(=N)N)NC(=O)CNC(=O)[C@H](Cc1ccc(O)cc1)NC(=O)[C@H](Cc1ccccc1)NC(=O)[C@H](Cc1ccccc1)NC(=O)[C@H](Cc1ccccc1)NC(=O)OCC1c2ccccc2-c2ccccc21)C(=O)O — geometric mean MIC (Gram-positive bacteria; seven strains): 3.62 µM
[O-][N+]1=C(c2ccc(Cl)cc2)C2=NCCCCN2c2ccccc21 — MIC90 (Clostridioides difficile; microbial growth): 4 µg/mL
CS(C)(=O)=Nc1ccc(-c2ccc(-c3nc4cc(O[C@@H]5CO[C@H]6[C@@H]5OC[C@H]6O)[nH]c4cc3F)cc2)cc1 — inhibition (NOS3 (Homo sapiens, UniProt P29474); enzyme activity; 10 µM; relative to: control): -14%
CCCCCOc1ccc(-c2ccc3ncnc(Nc4ccc(OCc5cccc(F)c5)c(Cl)c4)c3c2)c(F)c1F — inhibition (Trypanosoma cruzi; intracellular amastigote growth, β-galactosidase CPRG; 3T3, Tulahuen, β-galactosidase-expressing; 10 µM, 96 h): 52%
CC[C@H](C)[C@H](NC(=O)[C@H](Cc1ccccc1)NC(=O)[C@H](CCCCN)NC(=O)[C@H](CCCCN)NC(=O)CNC(=O)[C@H](C)NC(=O)[C@H](CC(N)=O)NC(=O)[C@H](CCCCN)NC(=O)[C@H](Cc1ccccc1)NC(=O)[C@H](CC(N)=O)NC(=O)[C@H](CCC(=O)O)NC(=O)[C@H](Cc1c[nH]c2ccccc12)NC(=O)[C@H](CC(C)C)NC(=O)[C@@H](N)CO)C(=O)N[C@@H](CC(C)C)C(=O)N[C@@H](CC(N)=O)C(=O)N[C@H](C(=O)N[C@@H](CC(C)C)C(=O)N[C@@H](CC(=O)O)C(=O)N[C@@H](CCCCN)C(N)=O)[C@@H](C)CC — geometric mean MIC (Gram-negative bacteria): 8 µM
O=S(=O)(c1ccc(-c2ccc3ncnc(Nc4ccc(OCc5cccc(F)c5)c(Cl)c4)c3c2)cc1)N1CCSCC1 — inhibition (Trypanosoma cruzi; intracellular amastigote growth; NIH 3T3, Tulahuen, β-galactosidase-expressing; 10 µM, 96 h): 18%
COc1ccccc1CCNC1CCCc2c1[nH]c1ccc(C)cc21 (stereo not shown) — MIC fold change (Streptococcus pneumoniae; concentration not given, 10% fetal bovine serum; relative to: without serum): 4
CC(O)CN(CC(C)O)CC(C)O.O=C(O)C(Cl)Cl (stereo not shown) — inhibition (Solanum nigrum; herbicidal activity; 15 mg/mL, 21 days, pre-emergence greenhouse): 0%
[O-][N+]1=C(c2ccccc2)C2=NCCN2c2ccccc21 — MIC50 (Clostridioides difficile; microbial growth): 0.5 µg/mL (≈ 1.9 µM)
CN(C)c1nc(NCc2ccc(F)cc2F)c(/N=N/c2ccc(Cl)cc2)c(N(C)C)n1 — mortality (Ostrinia furnacalis; leaf dipping; 50 mg/L, 96 h): 43.3 ± 5.8%
CC[C@H](C)CCCCC(=O)N[C@@H](CCN)C(=O)N[C@H](C(=O)N[C@@H](CCN)C(=O)N[C@H]1CCNC(=O)[C@H]([C@@H](C)O)NC(=O)[C@H](CCN)NC(=O)[C@H](CCN)NC(=O)[C@H](CC(C)C)NC(=O)[C@@H](CC(C)C)NC(=O)[C@H](CCN)NC1=O)[C@@H](C)O — MIC fold change (Escherichia coli; daily serial passaging; ATCC 8739; highest sub-MIC, 13 days; relative to: initial MIC): 0.579
CC(C)CC(C(=O)N1CC2(CC1C#N)C(=O)Nc1ccccc12)N(C)C(=O)c1cc2c(F)cc(F)c(F)c2[nH]1 (stereo not shown) — inhibition (human coronavirus 229E; viral replication; 4.6e-05 µM): 42.5%
CC(C)[C@H]1NC(=O)CNC(=O)[C@H](CO)NC(=O)[C@@H](Cc2c(-c3ccc(-c4ccc(-c5ccccc5)cc4)cc3)[nH]c3ccccc23)NC(=O)[C@@H](CO)NC(=O)[C@@H](C(C)C)NC(=O)[C@H](Cc2ccccc2)NC1=O — MIC90 (Mycobacterium marinum): 50.5 µM
CN(C(=O)c1ccn2ncc(-c3ccc(C(N)=O)cc3)c2c1)c1ccc(C#N)cn1 — faecal Nluc luminescence (Cryptosporidium parvum; UGA1 Nluc, IFN-gamma knockout C57BL/6 mice, faeces; oral, 10 mg/kg daily, 288 h post infection, treatment days 11-17; higher means more parasites): 180000 a.u. and 11200 a.u. and 92100 a.u. and 24900 a.u.
CCOC(=O)c1ccc(OCCC2CCN(c3ccc(C)nn3)CC2)cc1 — IC50 (Rhinovirus A; viral replication, high-content imaging; HeLa-CDHR3 C529Y, RV-A16; 3 dpi): 13 ± 1 nM
CC(C)(C)C(=O)OCOP(=O)(OCOC(=O)C(C)(C)C)C1CCCN(O)C1=O (stereo not shown) — GI50 (SK-MEL-28): 321 nM
CC(C)[C@H]1NC(=O)[C@H](Cc2ccccc2)NC(=O)[C@@H](C(C)C)NC(=O)[C@@H](C)NC(=O)[C@H](C)NC(=O)[C@@H](Cc2c(-c3ccc(-c4ccc(-c5ccccc5)cc4)cc3)[nH]c3ccccc23)NC(=O)[C@@H](C)NC1=O — MIC90 (Mycobacterium marinum): > 100 µM
C=CCN1C(=O)C(CC=C)(C(=O)OCC)Oc2cc(F)ccc21 (stereo not shown) — fresh weight inhibition (Setaria viridis; greenhouse; postemergence, 150 g ai/ha, 21 days): 42.2 ± 1.06%
COC(=O)C1=CO[C@@H](C)[C@@H]2Cn3ccc4c5ccccc5nc-4c3C[C@H]12 — IC50 (Plasmodium falciparum; growth, [3H]-hypoxanthine uptake; Dd2; 96 h): 275 ± 129 nM
Clc1cc(Nc2ncnc3ccc(-c4cccc(N5CCOCC5)c4)cc23)ccc1OCc1ccccc1 — EC50 (Trypanosoma cruzi; intracellular amastigote growth, β-galactosidase CPRG; 3T3, Tulahuen, β-galactosidase-expressing; 96 h): 1300 nM
CC[C@H](C)[C@@H]1NC(=O)[C@H](CO)NC(=O)C(C)(CCCCN)NC(=O)[C@@H]2CSSC[C@@H](C(=O)N[C@@H](Cc3ccc(O)cc3)C(N)=O)NC(=O)[C@H](CCCCN)NC(=O)[C@@H]3CSSC[C@H](NC(=O)[C@H](CCCNC(=N)N)NC(=O)C(C)(CC(C)C)NC(=O)[C@H](CC(=O)O)NC(=O)[C@H](CC(=O)O)NC(=O)[C@H](CCC(=O)O)NC(=O)[C@H](CC(N)=O)NC(=O)[C@H](Cc4c[nH]c5ccccc45)NC(=O)C(C)(CC)NC(=O)CNC(=O)[C@H](CC(N)=O)NC(=O)[C@@H](NC(=O)CNC(=O)[C@H](Cc4ccccc4)NC(=O)CN)CSSC[C@H](NC(=O)[C@H](Cc4ccc(O)cc4)NC(=O)CNC(=O)CNC(=O)[C@H](CCCCN)NC(=O)[C@H](Cc4ccc(O)cc4)NC(=O)[C@H]4CCCN4C(=O)[C@@H]4CCCN4C1=O)C(=O)N[C@@H](C)C(=O)N[C@@H](CCCCN)C(=O)N1CCC[C@@H]1C(=O)NCC(=O)N[C@@H](Cc1ccccc1)C(=O)N[C@@H](C(C)C)C(=O)N3)C(=O)N[C@@H](Cc1c[nH]cn1)C(=O)NC(C)(C)C(=O)N[C@@H](Cc1c[nH]cn1)C(=O)N2 (stereo partly shown) — MBC (Streptococcus pneumoniae; BS-441; 24 h, 37 °C, 99.9% killing): 0.5 µM
O=C1NC2(CC2)COc2ncc(F)cc2[C@H]2COCCN2c2ccn3ncc1c3n2 — pancreatic amylase activity (Sprague-Dawley rat, male, serum; oral, 5 mg/kg/day, 4 weeks daily, end of recovery period): 2020 ± 130 U/L
CC(C)[C@H]1NC(=O)[C@H](Cc2ccccc2)NC(=O)[C@@H](C(C)C)NC(=O)[C@@H](C)NC(=O)[C@H](CO)NC(=O)[C@@H](Cc2c(-c3ccc(-c4cccc5ccccc45)cc3)[nH]c3ccccc23)NC(=O)[C@@H](CO)NC1=O — MIC90 (Mycobacterium marinum): 40.8 µM
CN(CCO)CCO.O=C(O)C(Cl)Cl — inhibition (Chenopodium album; herbicidal activity; 15 mg/mL, 21 days, pre-emergence greenhouse): 0%
Cc1cc(C(=O)Nc2nc3cccc(C)c3n2[C@H]2CCCCN(C(=O)/C=C/CN(C)C)C2)ccn1 — survival (Trypanosoma brucei brucei; 2T1 CLK1 C215S overexpressing; 0.00013 µM, 72 h): 106% and 95% and 79.8% and 95.7% and 85.8% and 95.1%

Repeated from above:
CC(C)CC(C(=O)N1CC2(CC1C#N)C(=O)Nc1ccccc12)N(C)C(=O)c1cc2c(F)cc(F)c(F)c2[nH]1 (stereo not shown) — inhibition (human coronavirus 229E; viral replication; 4.6e-05 µM): 42.5%
CCCCCCCCCC(=O)OCCSCCC(=O)N[C@H](CCN)C(=O)N[C@@H](CCN)C(=O)N[C@@H](CCN)C(=O)N[C@@H](CC(C)C)C(=O)N[C@H](Cc1ccccc1)C(=O)N[C@@H](CCN)C(=O)N[C@@H](CCN)C(=O)N[C@@H](CC(C)C)C(N)=O — MBC (Acinetobacter calcoaceticus; BHI agar spot plating; 24 h, 37 °C): 32 µM
[O-][N+]1=C(c2ccccc2)C2=NCCN2c2ccccc21 — MIC50 (Clostridioides difficile; microbial growth): 0.5 µg/mL (≈ 1.9 µM)
CN(CCO)CCO.O=C(O)C(Cl)Cl — inhibition (Chenopodium album; herbicidal activity; 15 mg/mL, 21 days, pre-emergence greenhouse): 0%
